Measurements collected from several papers.
Numbered parts are unrelated; each lists some results of a single study. Values joined by “and” are separate records of one study, mostly repeats; a detail may differ.

Series 1 — cell line: HaCaT; tested at: 100 µM; time: 36 h
`Cc1cnc(C(=O)N[C@H]2CCCCC/C=C\[C@@H]3C[C@@]3(C(=O)NS(=O)(=O)C3CC3)NC(=O)[C@@H]3C[C@@H](Oc4nc5ccccc5c5ccccc45)CN3C2=O)cn1` has a viability of 5.75%.
With `CC[C@H](C)[C@H](N)C(=O)O` the viability was 89.1%.
With `CO[C@H]1C[C@H](O[C@H]2[C@H](C)O[C@@H](O[C@@H]3/C(C)=C/C[C@@H]4C[C@@H](C[C@]5(C=C[C@H](C)[C@@H](C6CCCCC6)O5)O4)OC(=O)[C@@H]4C=C(C)[C@@H](O)[C@H]5OC/C(=C\C=C\[C@@H]3C)[C@]54O)C[C@@H]2OC)O[C@@H](C)[C@@H]1O` the viability was 11.8%.
The viability of `Nc1nc2[nH]cc(CCc3ccc(C(=O)O)cc3)c2c(=O)[nH]1` is reported as 49.8%.
`CCOC(=O)c1c(C)n(C)c2ccc(O)cc12` has a viability of 39.6%.
`CCOc1ccc(NC(C)=O)cc1` has a viability of 96%.
`CCN(CC)CCNC(=O)c1cc(Br)c(N)cc1OC` has a viability of 78.1%.
`CCCCC(=O)O[C@]1(C(=O)CO)[C@@H](C)C[C@H]2[C@@H]3CCC4=CC(=O)C=C[C@]4(C)[C@@]3(F)[C@@H](O)C[C@@]21C` gave a viability of 46.2%.

Series 2 — cell line: mouse MPNST tumor cells; technique: high-content nuclear imaging; item: cell number; tested at: 10 µM; time: 12 h; notes: mean of 2 replicates; relative to: plate mean; direction: higher = more cells
`CCc1ccc(OCc2ccccc2C(=O)Nc2ccc3nc(C)cc(N)c3c2)cc1` gave a nuclei count of -5.89 z-score.
For `O=C1c2ccccc2-c2nc3nonc3nc21`, the nuclei count was -5.14 z-score.
For `CC(C)Oc1cccc(CC(=O)N2CCC[C@](CC[N+]34CCC(c5ccccc5)(CC3)CC4)(c3ccc(Cl)c(Cl)c3)C2)c1`, the nuclei count was 1.76 z-score.
For `COc1cc(C=Cc2ccc(OC)cc2OC)cc(OC)c1`, the nuclei count was -3.92 z-score.
`CCN(CC)CCNc1ccc(CO)c2sc3ccccc3c(=O)c12` has a nuclei count of -5.02 z-score.
`CN(C)CCCN1c2ccccc2Sc2ccccc21` has a nuclei count of 2.4 z-score.
For `C#CCNc1nccc(-c2ccc(-n3ccnc3)cc2)n1`, the nuclei count was 1.95 z-score.
`Cc1ccccc1C(OCCN(C)C)c1ccccc1` (centres unmarked) has a nuclei count of 5.13 z-score.

Further values, each from its own experiment
With `CCOc1ccc(Nc2c3c(nc4ccccc24)CCC3)cc1` the normalised inhibition was 100% and 101% and 102% (Leishmania donovani; parasite growth, high-content imaging; MHOM/IN/80/DD8, amastigotes in THP-1 cells; 80 µM).
For `COc1cc(C(=O)OCCCN2CCCN(CCCOC(=O)c3cc(OC)c(OC)c(OC)c3)CC2)cc(OC)c1OC`, the tissue concentration was 1.64 ng/mL (male CD-1 mouse, dorsal root ganglia; subcutaneous, dose not given, 24 h).
For `CC(C)n1cnc(-c2ccc(F)cc2)c1-c1ncc(C(=O)Nc2ccc(N3CCN(C)CC3)cc2)[nH]1`, “patients with Gingivitis TEAE” read 0% (phase 2a clinical trial; patients with idiopathic pulmonary fibrosis; 60 mg once daily).
With `c1ccc(Oc2ccc(Nc3c4c(nc5ccccc35)CCC4)cc2)cc1` the normalised inhibition was 100% (Leishmania donovani; parasite growth, high-content imaging; MHOM/IN/80/DD8, amastigotes in THP-1 cells; 80 µM).
